Results from different studies.
Parts stem from different laboratories: compare values within a part only.

Sample 1
Target: Interferon regulatory factor 5, full length, phosphomimetic (IRF5, Homo sapiens, UniProt Q13568-2, residues 1-514, K96S/S451D/S453D/S456D/S462D)
Technique: protein-binding microarray
Form: double-stranded DNA, one strand shown
Matrix: in vitro
Tested at: 250 nM
Notes: 60-bp whole probe
Added: salmon DNA 0.4 mg/ml
Baseline: random background probes
Reading: higher = stronger binding
Endpoint: log fluorescence
GCCTAGCACGACGGACTGGACTATCGCGACGTGCTAGTCTTGATTCGCTTGACGCTGCTG: -0.388 z-score
GCCTAGCACTTAGGTCTCGGTATCTGTTAGTGCTAGGTCTTGATTCGCTTGACGCTGCTG: 1.26 z-score
GCCTAGCACTACCTTTTCACTTTACACACGTGCTAGGTCTTGATTCGCTTGACGCTGCTG: 2.19 z-score
GCCTAGCACGACGCACTGGGGTATCGAGACGTGCTAGTCTTGATTCGCTTGACGCTGCTG: 0.0409 z-score

Sample 2
Target: Prothrombin, mature alpha-thrombin (F2, Homo sapiens, UniProt P00734)
Technique: aptamer microarray, sandwich
Form: DNA with 2'F-ANA
Matrix: in vitro
Tested at: 200 nM
Notes: whole 15-mer aptamer, many near background
Added: Cy3 exosite-II aptamer, 400 nM
Reading: higher = stronger binding
Endpoint: mean fluorescence intensity
GGTTGGTGTGGTTGG (2'F-ANA at 3 4 5 7 8 11 12 14): 56.6 a.u.
GGTTGGTGTGGTTGG (2'F-ANA at 1 4 5 12 14 15): 77.4 a.u.
GGTTGGTGTGGTTGG (2'F-ANA at 1 5 6 7 8 9 11 12 13 14): 47.5 a.u.
GGTTGGTGTGGTTGG (2'F-ANA at 1 2 3 9 10 11 12): 74.8 a.u.

Sample 3
Target: Histone acetyltransferase KAT6A, winged helix 1, GST fusion (KAT6A, Homo sapiens, UniProt Q92794, residues 1-85)
Technique: protein binding microarray
Form: double-stranded DNA, one strand shown
Matrix: in vitro
Tested at: not given
Notes: 8-mer, flanks averaged, mean of 2 arrays, mostly near background
Baseline: not given
Reading: higher = stronger binding
Endpoint: E-score
Construct (chain): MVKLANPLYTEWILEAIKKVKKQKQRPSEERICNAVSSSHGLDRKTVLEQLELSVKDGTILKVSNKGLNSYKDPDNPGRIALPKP
AATACGTC: -0.0158
CATACAGA: -0.209
AGTCAGCG: 0.163
CTCTTCAG: -0.105
GAGAGGTA: -0.13

Other studies, line by line
PhoQ, residues 284 288 289 292 302 303 TLMATV
fold induction (PhoP, residues 12 14 15 18 19 NNFVT (Escherichia coli, UniProt P23836); Sort-seq, measured: YFP reporter; E. coli; PhoQ-PhoP variant library, added: 10 µM Mg2+; baseline: high Mg2+ state, higher = stronger signaling): 3.29
